Results gathered from unrelated publications.
Numbered parts are unrelated; each lists some results of a single study.

Set 1 — technique: protein binding microarray; form: double-stranded DNA, one strand shown; sample: in vitro; tested at: not given; baseline: not given; reading: higher = stronger binding
Target: Histone acetyltransferase KAT6A, winged helix 1, GST fusion (KAT6A, Homo sapiens, UniProt Q92794, residues 1-85)
Setting: 8-mer, flanks averaged, mean of 2 arrays, mostly near background
Residues (chain): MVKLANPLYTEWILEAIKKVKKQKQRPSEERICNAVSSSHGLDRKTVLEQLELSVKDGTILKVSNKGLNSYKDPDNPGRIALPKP
`TGTTGCAA` gave an E-score of -0.182.
The E-score of `GCGCTAAC` is reported as 0.301.
`CGAAACTA` gave an E-score of 0.0128.
For `CGAAGTTA`, the E-score was -0.152.
For `TAAATAGA`, the E-score was -0.0884.
With `GAGGTCAC` the E-score was -0.155.
`AGAAATCC` has an E-score of 0.0144.
The E-score of `AGCAAGTG` is reported as -0.265.

Set 2 — action: inhibitor; tested at: 20 µM
Target: Replicase polyprotein 1ab, nsp13 helicase (rep, Severe acute respiratory syndrome coronavirus 2, UniProt P0DTD1)
Cc1cnc(NC(=O)Nc2cc(Br)c(C)cc2OC[C@@H]2CNCCO2)cn1 gave an inhibition of -0.27%.
With O=C1CCC[C@@H]2[C@H]3CCCN4CCC[C@@H](CN12)[C@@H]34 the inhibition was 6.28%.
For NC(=O)N1c2ccccc2CC(=O)c2ccccc21, the inhibition was 5.89%.
With CCOc1cc(N)c(Cl)cc1C(=O)NCC1CN(Cc2ccc(F)cc2)CCO1 (centres unmarked) the inhibition was -2.65%.
For COC(=O)[C@@H]1[C@H]2C[C@H]3c4[nH]c5ccccc5c4CCN3C[C@@H]2CC[C@@H]1O, the inhibition was -3.73%.
O=c1[nH]c(CCl)nc2sc3c(c12)CCCC3 has an inhibition of 14.6%.
CC1(C)CCC(C)(C)c2cc(C3(c4ccc5cc(C(=O)O)ccc5c4)SCCS3)ccc21 has an inhibition of 4.26%.
For OC[C@H]1O[C@@H](OCCc2ccc(O)cc2)[C@H](O)[C@@H](O)[C@@H]1O, the inhibition was 3.65%.
With Cc1ccc(F)c(NC(=O)Nc2ccc(-c3cccc4[nH]nc(N)c34)cc2)c1 the inhibition was 1.89%.
With c1cc(Cc2cnc[nH]2)ccn1 the inhibition was 2.12%.
The inhibition of NCC1CC(=O)N(Cc2ccccc2)C1 (centres unmarked) is reported as 5.07%.
Cc1ccc(S(=O)(=O)NC2c3ccccc3Oc3ccccc32)cc1 has an inhibition of -0.79%.
With CCN(CC)CC(=O)Nc1c(C)cccc1C the inhibition was -3.3%.
With COc1ccc(CC2NCCc3cc(OC)c(OC)cc32)cc1OC (centres unmarked) the inhibition was 2.71%.
For Cc1cc(O)c2c(c1)C(=O)c1cc(O)cc(O)c1C2=O, the inhibition was 19.4%.
C(=C\c1ccccc1)/CN1CCN(CCOC(c2ccccc2)c2ccccc2)CC1 has an inhibition of 4.2%.
CC(C)[C@H]1C(=O)N[C@@H](CCCNC(=N)N)C(=O)NCC(=O)N[C@@H](CC(=O)O)C(=O)N[C@H](Cc2ccccc2)C(=O)N1C has an inhibition of 7.72%.
For CCOC(=O)/C=C(C)/C=C/C=C(C)/C=C/c1c(C)cc(OC)c(C)c1C, the inhibition was 7.59%.
COCCOc1cnc2ccn([C@H](C)c3nnc4c(F)cc(-c5cnn(C)c5)cn34)c(=O)c2c1 has an inhibition of 13.2%.
For Oc1ccc2c3c1O[C@H]1c4oc5ccccc5c4C[C@@]4(O)[C@@H](C2)N(CC2CC2)CC[C@]314, the inhibition was -1.6%.
CCOC(=O)Nc1ccc(NCc2c(C)cc(C)cc2C)cc1N gave an inhibition of 9.64%.
For CCCCN(CCCC)CCC(O)c1cc2c(Cl)cc(Cl)cc2c2cc(C(F)(F)F)ccc12 (centres unmarked), the inhibition was 7.09%.
For CCN1CCN(Cc2ccc(Nc3ncc(F)c(-c4cc(F)c5nc(C)n(C(C)C)c5c4)n3)nc2)CC1, the inhibition was 14.1%.
The inhibition of CC(C)(C)Nc1nc(Nc2ccc(C(N)=O)cc2)cc(N)c1C#N is reported as 3.03%.
Cc1onc(-c2ccccc2)c1-c1ccc(S(N)(=O)=O)cc1 has an inhibition of 3.6%.

Set 3 — technique: RNA Bind-n-Seq; form: RNA; sample: in vitro; tested at: 1 µM; setting: whole 134-nt RNA, ends assumed; with: 150 mM KCl; baseline: input library; reading: higher = stronger binding
Target: Ras GTPase-activating protein-binding protein 1, RRM domain (G3BP1, Homo sapiens, UniProt Q13283)
Chain of UniProt Q13283 (whole entry, looked up): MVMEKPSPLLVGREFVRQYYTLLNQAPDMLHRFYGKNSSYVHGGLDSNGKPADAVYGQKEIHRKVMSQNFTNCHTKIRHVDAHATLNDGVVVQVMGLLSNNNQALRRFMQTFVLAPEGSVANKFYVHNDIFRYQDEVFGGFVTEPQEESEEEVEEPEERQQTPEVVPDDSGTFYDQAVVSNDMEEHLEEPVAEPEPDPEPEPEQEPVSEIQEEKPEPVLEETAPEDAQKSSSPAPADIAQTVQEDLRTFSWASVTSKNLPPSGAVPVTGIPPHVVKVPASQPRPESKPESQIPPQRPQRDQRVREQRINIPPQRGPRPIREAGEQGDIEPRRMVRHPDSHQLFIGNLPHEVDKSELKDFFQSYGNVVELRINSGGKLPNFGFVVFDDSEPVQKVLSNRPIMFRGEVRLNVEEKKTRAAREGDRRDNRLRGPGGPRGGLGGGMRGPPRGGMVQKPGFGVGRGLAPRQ
`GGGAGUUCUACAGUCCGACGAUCUGUUUAUCCAACAUAUGAUUUUGCCUGCCCCAUAGUUGACAGCAUCGAAGGUGUUACACAUGCCCUGAGAACAACAGAAUACCAUGACAGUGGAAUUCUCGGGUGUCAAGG` has a log2 enrichment of -0.108.
For `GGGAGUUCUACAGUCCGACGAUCUAACUUUGGAGGAGGAUCUGAUGGAUAUGGCAGUGGACGUGGAUUUGGGGAUGGCUAUAAUGGGUAUGGAGGAGGACCUGGAGGUGGCAAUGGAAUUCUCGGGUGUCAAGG`, the log2 enrichment was -0.811.
The log2 enrichment of `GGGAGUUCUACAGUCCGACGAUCAAGUCCUGUGCUACACAUCGUAUGUACCGAAUCGGGGUUUUUGGGGAGGGGUGGGGAAAGUAUUAUGUUACGCCGUUCGGAUCUGCACUUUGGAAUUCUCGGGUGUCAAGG` is reported as 0.68.
`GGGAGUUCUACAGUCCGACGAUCCCUGUGCUACACAUCGUAUGUACCGAAUCGGGAAAAAAAGGGUUUUUUUGGGUUUUUGGGAAAGUAUUAUGUUACGCCGUUCGGAUCUGCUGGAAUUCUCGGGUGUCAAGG` gave a log2 enrichment of -0.255.
For `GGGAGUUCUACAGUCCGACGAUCACCAUGCAGGUGGGCAUCUUUGGGAAGUGGGGCAAGGGGGGGAUAGGGAGGGGGGUAACACUUUCGGAACAGGUGGUCCCAGGUCGUUUCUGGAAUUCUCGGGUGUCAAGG`, the log2 enrichment was 0.841.

Set 4 — technique: RNA Bind-n-Seq; form: RNA; sample: in vitro; tested at: 365 nM; baseline: no-protein control; reading: higher = stronger binding
Target: RNA binding protein fox-1 homolog 2, RRM domain, GST-SBP tag (RBFOX2, Homo sapiens, UniProt O43251-10, residues 100-194)
Setting: natural RNA segment, single round, ends assumed
Target sequence (chain): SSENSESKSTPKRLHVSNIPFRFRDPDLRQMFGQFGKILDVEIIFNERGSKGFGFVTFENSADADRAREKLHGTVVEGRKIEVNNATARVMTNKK
`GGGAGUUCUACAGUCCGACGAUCCUCCUCAAGACAGCCGAAGGGUGGGAUUGGUGCCGCUCUGGGAAGCGUGGCCCCAGGAGUUUUGUCCUCUGCAGUUUUUAAUGCAAGUUCACUGCCACUUUGACAAAAGCUGGAAUUCUCGGGUGCCAA` — result for “RBNS enrichment (R)”: 0.698.
`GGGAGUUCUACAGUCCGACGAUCACUCAAGAAGCUGAGAUGGGAGGAUCCUGAGCUCAGGAGGUCAAGGCUGCAGUGAGCCGAGAUUGUGCCACUGCACUGCAGCUGGGGUGACAGUGCAAGACCCUGUCUCAUGGAAUUCUCGGGUGCCAA`: “RBNS enrichment (R)” 0.693.
Under “RBNS enrichment (R)”, `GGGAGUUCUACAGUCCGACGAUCUUUCAAGCGCUAUCCACAUCUGACCACAGGCUGGAGAUGUAAGCAGGGAUCUCGGCAGGGAAACAAACCCGAGAGGACACGUGGGAUUUCAGCAAUACUGACUGUGAAGUUGGAAUUCUCGGGUGCCAA` is recorded as 0.248.
`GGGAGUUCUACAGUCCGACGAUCAAUGCCUACAGCUGUCUUCACAUGUAUGGACGUGUGUGAAUGGUUGUACGUUUUGCACAUUUUGUGGCUGUUGAGAUGUGCUUUGCUGCACAAACAUGAAAAUUUUUGAGUGGAAUUCUCGGGUGCCAA`: “RBNS enrichment (R)” 0.611.
`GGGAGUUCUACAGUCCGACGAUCUUCCAAGCUGGGCAAGGUACAUUUAAUCAGUAAAUCAGUUUCACAUCAUGUAUUGUGAUGUUUCAAUGUGAGACACAAAAACAAUGGCUUGAAACUUGUGUAUCAUAUGUUGGAAUUCUCGGGUGCCAA` — result for “RBNS enrichment (R)”: 0.81.
Under “RBNS enrichment (R)”, `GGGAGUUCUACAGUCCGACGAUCAGGGGCUAUGGGAACCGACAGAACAUGGGCUGUCUUCCCACAACACCACAGGACUGCAGGGUGCACAACUCCCCUGCCAAGGAAAACCAUGCAGUCCUCCCCUCCCUGGUUGGAAUUCUCGGGUGCCAA` is recorded as 0.457.
`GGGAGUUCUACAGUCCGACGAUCUGAUCAUUGCACUUAAAAUAUUAAUACUUCGGAGGAUAAAGCAGAAGGGUCAUAAGCUCAAGGCCAUUUUUAGAAGCUUGUUGGGACACUGUCUCCAAUAGAAAGUGAAAUGGAAUUCUCGGGUGCCAA` — result for “RBNS enrichment (R)”: 0.917.
`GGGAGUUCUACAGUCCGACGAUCAGUGGUGCCUCUUCCAGAAGACUCUGGAAGAUUACCUACUUGGGGGUAGGCCUUGGAGGGAAAUCUGUAGGGGUGGGGACCUUCCUACCUUCCUGGCUUGAGAACAGCCCUGGAAUUCUCGGGUGCCAA` — result for “RBNS enrichment (R)”: 0.321.

Set 5 — technique: protein-binding microarray; form: double-stranded DNA, one strand shown; sample: in vitro; tested at: 250 nM; setting: 60-bp whole probe; with: salmon DNA 0.4 mg/ml; baseline: random background probes; reading: higher = stronger binding; all sequences stand within: GCCTAGCAC … GTCTTGATTCGCTTGACGCTGCTG
Target: Interferon regulatory factor 7, full length, phosphomimetic (IRF7, Homo sapiens, UniProt Q92985, residues 1-503, S101K/S471D/S472D/S475D/S476D/S477D/S483D/S484D/S487D)
Residues (chain): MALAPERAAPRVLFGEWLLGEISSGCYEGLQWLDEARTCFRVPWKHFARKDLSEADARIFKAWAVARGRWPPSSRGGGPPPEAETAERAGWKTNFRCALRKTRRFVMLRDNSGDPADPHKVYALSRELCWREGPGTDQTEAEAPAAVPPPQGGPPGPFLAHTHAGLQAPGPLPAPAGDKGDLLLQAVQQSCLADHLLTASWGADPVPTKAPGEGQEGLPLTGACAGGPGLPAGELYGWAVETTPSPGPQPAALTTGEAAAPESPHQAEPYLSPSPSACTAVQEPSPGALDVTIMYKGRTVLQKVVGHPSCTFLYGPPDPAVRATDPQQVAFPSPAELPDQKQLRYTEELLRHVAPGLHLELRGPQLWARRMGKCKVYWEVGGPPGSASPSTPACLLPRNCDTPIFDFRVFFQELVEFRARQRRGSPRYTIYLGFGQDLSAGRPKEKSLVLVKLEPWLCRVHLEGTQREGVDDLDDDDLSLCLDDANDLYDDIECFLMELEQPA
With `GACGGTCTCCTATTGCTGACGTGCTAG` the log fluorescence was 0.343 z-score.
The log fluorescence of `TTAGATTTCAGTTTCGATTCGTGCTAG` is reported as 12.8 z-score.
With `TTAGGTGTCGACTATCGGTTAGTGCTA` the log fluorescence was -0.164 z-score.
With `TAAGATTTCAGTTTCGATTAGTGCTAG` the log fluorescence was 9.79 z-score.
With `TCATTTTTTTTTCTGATACTGTGCTAG` the log fluorescence was 1.31 z-score.
`TTAGACCTGGGGTATCGATTAGTGCTA` gave a log fluorescence of 0.136 z-score.
`TACGGTTTCCTTCTCCTGACGTGCTAG` has a log fluorescence of 2.76 z-score.
For `GACGGTCTCCTACTGGTGACGTGCTAG`, the log fluorescence was -0.704 z-score.

Further values, each from its own experiment — observed: enzyme activity; action: inhibitor
The inhibition of Oc1ccc2ccccc2c1SSc1c(O)ccc2ccccc12 is reported as 6% (Replicase polyprotein 1ab, 3C-like proteinase (rep, Middle East respiratory syndrome-related coronavirus, UniProt K9N7C7); MERS-CoV; 10 µM).
CCOC(=O)c1ccc(N2NC(=O)/C(=C/c3ccc([N+](=O)[O-])o3)C2=O)cc1 gave an inhibition of 70.9% (Replicase polyprotein 1ab, main protease (rep, Severe acute respiratory syndrome coronavirus 2, UniProt P0DTD1); 20 µM, primary screen).
